{"data": "Assay results collected from several papers", "note": "Each numbered part is a random draw from the data of one study; scales do not carry over between parts. Changes are numbered by the printed parent chain."}
{"data": "Set 1", "target": "CCNF, cyclin fold, Cln2 fusion (human)", "technique": "yeast growth competition, sequencing", "medium": "yeast", "setting": "strong parent motif", "reference": "not given", "direction": "higher = stronger binding", "starting sequence": "RB1 docking peptide (human); PKPLKKLRFDIEG"}
{"Change": "PKPCKKLRFDIEG [L4C]", "normalised enrichment score": 4.81}
{"Change": "PFPLKKLRFDIEG [K2F]", "normalised enrichment score": 2.6}
{"Change": "PKPYKKLRFDIEG [L4Y]", "normalised enrichment score": 1.82}
{"Change": "PKPLKKLRFDQEG [I11Q]", "normalised enrichment score": 0.374}
{"Change": "PKPLKKLRFDIFG [E12F]", "normalised enrichment score": 1.86}
{"Change": "PKPLDKLRFDIEG [K5D]", "normalised enrichment score": 0.0161}
{"data": "Set 2", "target": "Histone acetyltransferase KAT6A, winged helix 2, GST fusion (KAT6A, Homo sapiens, UniProt Q92794, residues 85-181)", "technique": "protein binding microarray", "form": "double-stranded DNA, one strand shown", "medium": "in vitro", "concentration": "not given", "setting": "8-mer, flanks averaged, mean of 2 arrays, mostly near background", "reference": "not given", "direction": "higher = stronger binding", "Construct (chain)": "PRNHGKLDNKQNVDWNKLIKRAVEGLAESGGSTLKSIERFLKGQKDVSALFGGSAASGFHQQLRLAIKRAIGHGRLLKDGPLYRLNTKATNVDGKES"}
{"Strand": "AAGCATGG", "E-score": -0.0116}
{"Strand": "GAAGTGAA", "E-score": 0.0611}
{"Strand": "ACCAAATG", "E-score": -0.131}
{"Strand": "CTGGGCCA", "E-score": -0.0828}
{"Strand": "AGCAAAAC", "E-score": 0.061}
{"Strand": "ATCCCAGA", "E-score": 0.0737}
{"data": "Set 3", "target": "Interferon regulatory factor 5, full length, phosphomimetic (IRF5, Homo sapiens, UniProt Q13568-2, residues 1-514, K96S/S451D/S453D/S456D/S462D)", "technique": "protein-binding microarray", "form": "double-stranded DNA, one strand shown", "medium": "in vitro", "concentration": "250 nM", "setting": "60-bp whole probe", "with": "salmon DNA 0.4 mg/ml", "reference": "random background probes", "direction": "higher = stronger binding", "all sequences stand within": "GCCTAGCAC … GTCTTGATTCGCTTGACGCTGCTG"}
{"Strand": "GAAGCCCTCCCTGTGGGGGGGTGCTAG", "log fluorescence": "1.27 z-score"}
{"Strand": "TCCCTTTCAGTTTTCCTATGGTGCTAG", "log fluorescence": "4.3 z-score"}
{"Strand": "TTTTTTTTTTTTCTGATCCAGTGCTAG", "log fluorescence": "1.5 z-score"}
{"Strand": "TTAGGTTTCGGTCTCGGTTTGTGCTAG", "log fluorescence": "10.6 z-score"}
{"Strand": "AACGGTATCGGGTTTCGGGACGTGCTA", "log fluorescence": "4.98 z-score"}
{"Strand": "TTAGGTATCGGTTTCGGTTCGTGCTAG", "log fluorescence": "10.7 z-score"}
{"Strand": "TTAGGTATCGGGACTGGGTGAGTGCTA", "log fluorescence": "1.6 z-score"}
{"data": "Further values, each from its own experiment"}
{"Substance": "PhoQ, residues 284 288 289 292 302 303 SCCLKL", "target": "PhoP, residues 12 14 15 18 19 LWHVM (Escherichia coli, UniProt P23836)", "test": "Sort-seq, refers to: YFP reporter", "test system": "E. coli", "conditions": "PhoQ-PhoP variant library, with: 10 µM Mg2+", "how to read": "reference: high Mg2+ state, higher = stronger signaling", "measurement": "fold induction", "value": 1.94}
{"note": "Some of these lines once more (set 2):"}
{"Strand": "AGCAAAAC", "E-score": 0.061}
{"Strand": "AAGCATGG", "E-score": -0.0116}
